Published values collected from several papers.
Protocols differ between the studies behind these lines. Converted amounts (≈) assume the structure as drawn.
Organism: Bacillus subtilis

CO[C@H]1O[C@H](COC(c2ccccc2)(c2ccccc2)c2ccccc2)[C@@H](OS(=O)(=O)c2ccccc2)[C@H](OS(=O)(=O)c2ccccc2)[C@H]1OS(=O)(=O)c1ccccc1 — MIC (microbial growth, broth dilution): 1.5 µg/mL (≈ 1.75 µM)
CC[C@H]1OC(=O)[C@H](C)[C@@H](OC(=O)Cc2ccccc2Cl)[C@H](C)[C@@H](O[C@@H]2O[C@H](C)C[C@H](N(C)C)[C@H]2O)[C@](C)(OC)C[C@@H](C)C(=O)[C@H](C)[C@@H](O)[C@]1(C)O — MIC (microbial growth; DSM402): 2 µg/mL (≈ 2.69 µM)
CN[C@H](CC(C)C)C(=O)N[C@H]1C(=O)N[C@@H](CC(N)=O)C(=O)N[C@H]2C(=O)N[C@H]3C(=O)N[C@H](C(=O)N[C@H](C(=O)NCC(N)=O)c4cc(O)cc(O)c4-c4cc3ccc4O)[C@H](O)c3ccc(c(Cl)c3)Oc3cc2cc(c3O[C@@H]2O[C@H](CO)[C@@H](O)[C@H](O)[C@H]2O[C@H]2C[C@](C)(NCc3ccc(OCc4cn(CC(=O)N[C@H](C(=O)N[C@@H](CCN)C(=O)N[C@H]5CCNC(=O)[C@H]([C@@H](C)O)NC(=O)[C@H](CCN)NC(=O)[C@H](CCN)NC(=O)[C@H](CC(C)C)NC(=O)[C@@H](CC(C)C)NC(=O)[C@H](CCN)NC5=O)[C@@H](C)O)nn4)c(OC)c3)[C@H](O)[C@H](C)O2)Oc2ccc(cc2Cl)[C@H]1O — MIC (broth microdilution; 168, cation-adjusted Mueller-Hinton broth; 20 to 24 h, 37 °C, 0.002% polysorbate 80): ≤ 0.008 µg/mL
CC[C@H]1OC(=O)[C@H](C)[C@@H](OC(=O)Cc2c(F)cc([N+](=O)[O-])cc2F)[C@H](C)[C@@H](O[C@@H]2O[C@H](C)C[C@H](N(C)C)[C@H]2O)[C@](C)(OC)C[C@@H](C)C(=O)[C@H](C)[C@@H](O)[C@]1(C)O — MIC (microbial growth; DSM402): 0.1 µg/mL (≈ 0.127 µM)
CC[C@H](C)[C@H](N)C1=N[C@H](C(=O)N[C@@H](CC(C)C)C(=O)N[C@H](CCC(=O)O)C(=O)N[C@H](C(=O)N[C@H]2CCCCNC(=O)[C@H](CC(N)=O)NC(=O)[C@@H](CC(=O)O)NC(=O)[C@H](Cc3c[nH]cn3)NC(=O)[C@@H](Cc3ccccc3)NC(=O)[C@H]([C@@H](C)CC)NC(=O)[C@@H](CCCN)NC2=O)[C@@H](C)CC)CS1 — MIC (168; 18 h, 37 °C, 0.3 mM ZnSO4 LB): 32 µg/mL (≈ 22.5 µM)
COc1cc(C(=O)O)ccc1NC(=O)c1ccc(NC(=O)c2ccc(NC(=O)[C@H](Cc3c[nH]nn3)NC(=O)c3ccc(NC(=O)/C(C)=C/c4ccc(O)cc4)cc3)cc2)c(OC)c1 — MIC (broth microdilution; DSM 10): 1 µg/mL (≈ 1.17 µM)
CC(C)C[C@@H]1NC(=O)[C@@H](CC(C)C)NC(=O)[C@H](CCN)NC(=O)[C@@H](NC(=O)[C@H](CCN)NC(=O)[C@@H](N)[C@@H](C)O)CCNC(=O)[C@H]([C@@H](C)O)NC(=O)[C@H](CCN)NC(=O)[C@H](CCN)NC1=O — MIC (broth microdilution; 168, cation-adjusted Mueller-Hinton broth; 20 to 24 h, 37 °C, 0.002% polysorbate 80): > 128 µg/mL
CCOc1c(NC(=O)c2ccc(NC(=O)c3ccc(NC(=O)[C@H](Cc4c[nH]nn4)NC(=O)c4ccc(NC(=O)/C(C)=C/c5ccc(O)cc5)cc4)cc3)c(OC)c2O)ccc(C(=O)O)c1O — MIC (broth microdilution; DSM 10): 0.5 µg/mL (≈ 0.556 µM)
CN[C@H](CC(C)C)C(=O)N[C@H]1C(=O)N[C@@H](CC(N)=O)C(=O)N[C@H]2C(=O)N[C@H]3C(=O)N[C@H](C(=O)N[C@H](C(=O)NCc4cn(CCCCC(=O)N[C@H](C(=O)N[C@@H](CCN)C(=O)N[C@H]5CCNC(=O)[C@H]([C@@H](C)O)NC(=O)[C@H](CCN)NC(=O)[C@H](CCN)NC(=O)[C@H](CC(C)C)NC(=O)[C@@H](CC(C)C)NC(=O)[C@H](CCN)NC5=O)[C@@H](C)O)nn4)c4cc(O)cc(O)c4-c4cc3ccc4O)[C@H](O)c3ccc(c(Cl)c3)Oc3cc2cc(c3O[C@@H]2O[C@H](CO)[C@@H](O)[C@H](O)[C@H]2O[C@H]2C[C@](C)(N)[C@H](O)[C@H](C)O2)Oc2ccc(cc2Cl)[C@H]1O — MIC (broth microdilution; 168, cation-adjusted Mueller-Hinton broth; 20 to 24 h, 37 °C, 0.002% polysorbate 80): 0.25 µg/mL (≈ 0.0984 µM)
CC[C@H]1OC(=O)[C@H](C)[C@@H](OC(=O)c2ccc([N+](=O)[O-])cc2)[C@H](C)[C@@H](O[C@@H]2O[C@H](C)C[C@H](N(C)C)[C@H]2O)[C@](C)(OC)C[C@@H](C)C(=O)[C@H](C)[C@@H](O)[C@]1(C)O — MIC (microbial growth; DSM402): 16 µg/mL (≈ 21.7 µM)
C/C(=C\c1ccc(O)cc1)C(=O)Nc1ccc(C(=O)N[C@@H](Cc2c[nH]nn2)C(=O)Nc2ccc(C(=O)Nc3ccc(C(=O)Nc4ccc(C(=O)O)cc4)c(O)c3)cc2)cc1 — MIC (broth microdilution; DSM 10): 2 µg/mL (≈ 2.47 µM)
CC[C@H]1OC(=O)[C@H](C)[C@@H](OC(=O)Cc2ccc(OC(F)(F)F)cc2)[C@H](C)[C@@H](O[C@@H]2O[C@H](C)C[C@H](N(C)C)[C@H]2O)[C@](C)(OC)C[C@@H](C)C(=O)[C@H](C)[C@@H](O)[C@]1(C)O — MIC (microbial growth; DSM402): 4 µg/mL (≈ 5.05 µM)
C#CCOc1ccc(CN[C@@]2(C)C[C@H](O[C@H]3[C@H](Oc4c5cc6cc4Oc4ccc(cc4Cl)[C@@H](O)[C@@H](NC(=O)[C@@H](CC(C)C)NC)C(=O)N[C@@H](CC(N)=O)C(=O)N[C@H]6C(=O)N[C@H]4C(=O)N[C@H](C(=O)N[C@H](C(=O)NCC(N)=O)c6cc(O)cc(O)c6-c6cc4ccc6O)[C@H](O)c4ccc(c(Cl)c4)O5)O[C@H](CO)[C@@H](O)[C@@H]3O)O[C@@H](C)[C@H]2O)cc1OC — MIC (broth microdilution; 168, cation-adjusted Mueller-Hinton broth; 20 to 24 h, 37 °C, 0.002% polysorbate 80): 0.125 µg/mL (≈ 0.0744 µM)
COc1cc(C(=O)O)ccc1NC(=O)c1ccc(NC(=O)c2ccc(NC(=O)[C@H](Cc3c[nH]nn3)NC(=O)c3ccc(NC(=O)/C(C)=C/c4ccc(O)cc4)cc3)cc2)c(OC)c1O — MIC (broth microdilution; DSM 10): 0.25 µg/mL (≈ 0.288 µM)
C#CCNC(=O)[C@H]1NC(=O)[C@H]2NC(=O)[C@H](NC(=O)[C@@H]3NC(=O)[C@H](CC(N)=O)NC(=O)[C@H](NC(=O)[C@@H](CC(C)C)NC)[C@H](O)c4ccc(c(Cl)c4)Oc4cc3cc(c4O[C@@H]3O[C@H](CO)[C@@H](O)[C@H](O)[C@H]3O[C@H]3C[C@](C)(N)[C@H](O)[C@H](C)O3)Oc3ccc(cc3Cl)[C@H]2O)c2ccc(O)c(c2)-c2c(O)cc(O)cc21 — MIC (broth microdilution; 168, cation-adjusted Mueller-Hinton broth; 20 to 24 h, 37 °C, 0.002% polysorbate 80): 0.125 µg/mL (≈ 0.0841 µM)
CC[C@H]1OC(=O)[C@H](C)C(=O)[C@H](C)[C@@H](O[C@@H]2O[C@H](C)C[C@H](N(C)C)[C@H]2O)[C@](C)(OC)C[C@@H](C)C(=O)[C@H](C)[C@H]2N(CCCCn3cnc(-c4cccnc4)c3)C(=O)O[C@]12C — MIC (microbial growth; DSM402): 0.3 µg/mL (≈ 0.369 µM)
COc1c(NC(=O)c2ccc(NC(=O)c3ccc(NC(=O)[C@H](Cc4c[nH]nn4)NC(=O)c4ccc(NC(=O)/C(C)=C/c5ccc(O)cc5)cc4)cc3)cc2)ccc(C(=O)O)c1O — MIC (broth microdilution; DSM 10): 4 µg/mL (≈ 4.77 µM)
CN[C@H](CC(C)C)C(=O)N[C@H]1C(=O)N[C@@H](CC(N)=O)C(=O)N[C@H]2C(=O)N[C@H]3C(=O)N[C@H](C(=O)N[C@H](C(=O)O)c4cc(O)cc(O)c4-c4cc3ccc4O)[C@H](O)c3ccc(c(Cl)c3)Oc3cc2cc(c3O[C@@H]2O[C@H](CO)[C@@H](O)[C@H](O)[C@H]2O[C@H]2C[C@](C)(NCc3ccc(OCc4cn(CC(=O)N[C@H](C(=O)N[C@@H](CCN)C(=O)N[C@H]5CCNC(=O)[C@H]([C@@H](C)O)NC(=O)[C@H](CCN)NC(=O)[C@H](CCN)NC(=O)[C@H](CC(C)C)NC(=O)[C@@H](CC(C)C)NC(=O)[C@H](CCN)NC5=O)[C@@H](C)O)nn4)c(OC)c3)[C@H](O)[C@H](C)O2)Oc2ccc(cc2Cl)[C@H]1O — MIC (broth microdilution; 168, cation-adjusted Mueller-Hinton broth; 20 to 24 h, 37 °C, 0.002% polysorbate 80): 0.25 µg/mL (≈ 0.0949 µM)
COc1nc(C(=O)O)ccc1NC(=O)c1ccc(NC(=O)c2ccc(NC(=O)[C@H](Cc3c[nH]nn3)NC(=O)c3ccc(NC(=O)/C(C)=C/c4ccc(O)cc4)cc3)cc2)c(OC)c1O — MIC (broth microdilution; DSM 10): 4 µg/mL (≈ 4.6 µM)
CC[C@H]1OC(=O)[C@H](C)[C@@H](OC(=O)Cc2c(F)cccc2F)[C@H](C)[C@@H](O[C@@H]2O[C@H](C)C[C@H](N(C)C)[C@H]2O)[C@](C)(OC)C[C@@H](C)C(=O)[C@H](C)[C@@H](O)[C@]1(C)O — MIC (microbial growth; DSM402): 1 µg/mL (≈ 1.34 µM)
